# Results collected from several papers.
# Numbered parts are unrelated; each lists some results of a single study.
# UniProt Q86UE8, sequence (whole entry, looked up): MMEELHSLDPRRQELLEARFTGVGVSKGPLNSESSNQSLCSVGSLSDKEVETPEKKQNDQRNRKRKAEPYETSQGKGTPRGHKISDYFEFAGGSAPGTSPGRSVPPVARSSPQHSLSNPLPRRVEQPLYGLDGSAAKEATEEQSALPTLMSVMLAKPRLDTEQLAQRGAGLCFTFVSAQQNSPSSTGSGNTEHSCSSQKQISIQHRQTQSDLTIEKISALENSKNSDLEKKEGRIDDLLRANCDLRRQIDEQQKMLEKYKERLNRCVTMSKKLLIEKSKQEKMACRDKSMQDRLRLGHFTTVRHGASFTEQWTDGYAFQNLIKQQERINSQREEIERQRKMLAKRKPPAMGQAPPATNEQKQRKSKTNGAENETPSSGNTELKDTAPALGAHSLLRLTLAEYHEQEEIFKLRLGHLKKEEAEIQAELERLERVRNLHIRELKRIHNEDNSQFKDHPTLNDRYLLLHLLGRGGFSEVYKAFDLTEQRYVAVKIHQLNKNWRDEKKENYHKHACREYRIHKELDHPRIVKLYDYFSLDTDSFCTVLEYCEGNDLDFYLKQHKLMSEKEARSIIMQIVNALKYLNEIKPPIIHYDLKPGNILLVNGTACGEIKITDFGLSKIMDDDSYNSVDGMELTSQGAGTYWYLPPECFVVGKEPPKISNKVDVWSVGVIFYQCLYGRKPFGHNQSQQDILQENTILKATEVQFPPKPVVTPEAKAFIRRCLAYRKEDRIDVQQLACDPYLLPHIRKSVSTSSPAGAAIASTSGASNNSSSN
# UniProt P42336, sequence (whole entry, unmodified, looked up): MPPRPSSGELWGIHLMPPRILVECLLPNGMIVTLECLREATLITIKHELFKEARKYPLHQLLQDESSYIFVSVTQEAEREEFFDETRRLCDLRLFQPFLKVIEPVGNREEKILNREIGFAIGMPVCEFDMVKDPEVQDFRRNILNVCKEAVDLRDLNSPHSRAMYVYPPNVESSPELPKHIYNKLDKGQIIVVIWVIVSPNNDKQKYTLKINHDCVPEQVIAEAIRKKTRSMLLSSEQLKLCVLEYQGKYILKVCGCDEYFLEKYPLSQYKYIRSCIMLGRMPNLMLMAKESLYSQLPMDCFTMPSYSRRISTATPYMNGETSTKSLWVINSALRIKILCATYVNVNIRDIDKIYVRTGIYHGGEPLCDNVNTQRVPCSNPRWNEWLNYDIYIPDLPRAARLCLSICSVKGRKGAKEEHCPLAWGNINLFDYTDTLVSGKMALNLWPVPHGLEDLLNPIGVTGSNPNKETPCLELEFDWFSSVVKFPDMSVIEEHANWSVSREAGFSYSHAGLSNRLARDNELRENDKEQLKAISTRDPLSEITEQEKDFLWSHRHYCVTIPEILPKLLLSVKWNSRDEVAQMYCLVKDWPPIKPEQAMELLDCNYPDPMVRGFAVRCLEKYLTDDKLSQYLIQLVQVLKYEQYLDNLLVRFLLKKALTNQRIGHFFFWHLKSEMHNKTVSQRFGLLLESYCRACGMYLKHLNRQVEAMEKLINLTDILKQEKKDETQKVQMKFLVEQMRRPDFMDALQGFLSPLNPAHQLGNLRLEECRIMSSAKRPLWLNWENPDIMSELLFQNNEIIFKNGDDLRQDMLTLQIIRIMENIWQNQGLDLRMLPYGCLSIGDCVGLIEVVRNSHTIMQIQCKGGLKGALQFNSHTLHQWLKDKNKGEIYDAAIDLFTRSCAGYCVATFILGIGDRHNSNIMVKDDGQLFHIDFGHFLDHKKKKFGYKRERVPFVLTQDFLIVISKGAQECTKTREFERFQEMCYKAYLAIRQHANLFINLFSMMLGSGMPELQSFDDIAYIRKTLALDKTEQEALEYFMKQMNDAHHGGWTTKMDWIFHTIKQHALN
# UniProt Q96RR4, sequence (whole entry, looked up): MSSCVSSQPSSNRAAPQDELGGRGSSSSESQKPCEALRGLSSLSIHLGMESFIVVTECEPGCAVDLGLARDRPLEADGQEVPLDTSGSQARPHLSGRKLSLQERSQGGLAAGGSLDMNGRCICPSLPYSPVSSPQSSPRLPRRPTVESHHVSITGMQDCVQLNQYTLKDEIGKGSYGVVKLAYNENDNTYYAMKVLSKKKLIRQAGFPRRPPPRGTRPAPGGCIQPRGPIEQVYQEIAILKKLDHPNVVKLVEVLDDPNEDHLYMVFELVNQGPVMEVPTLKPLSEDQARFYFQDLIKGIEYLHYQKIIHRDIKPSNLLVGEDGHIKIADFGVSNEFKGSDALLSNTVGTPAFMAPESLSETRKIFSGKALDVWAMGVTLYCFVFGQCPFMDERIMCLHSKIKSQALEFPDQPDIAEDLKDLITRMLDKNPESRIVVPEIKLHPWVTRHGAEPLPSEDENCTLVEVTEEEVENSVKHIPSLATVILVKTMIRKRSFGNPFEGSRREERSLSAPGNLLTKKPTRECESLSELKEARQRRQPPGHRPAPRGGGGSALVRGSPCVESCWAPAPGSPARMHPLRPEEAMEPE
# UniProt P08069, sequence (whole entry, looked up): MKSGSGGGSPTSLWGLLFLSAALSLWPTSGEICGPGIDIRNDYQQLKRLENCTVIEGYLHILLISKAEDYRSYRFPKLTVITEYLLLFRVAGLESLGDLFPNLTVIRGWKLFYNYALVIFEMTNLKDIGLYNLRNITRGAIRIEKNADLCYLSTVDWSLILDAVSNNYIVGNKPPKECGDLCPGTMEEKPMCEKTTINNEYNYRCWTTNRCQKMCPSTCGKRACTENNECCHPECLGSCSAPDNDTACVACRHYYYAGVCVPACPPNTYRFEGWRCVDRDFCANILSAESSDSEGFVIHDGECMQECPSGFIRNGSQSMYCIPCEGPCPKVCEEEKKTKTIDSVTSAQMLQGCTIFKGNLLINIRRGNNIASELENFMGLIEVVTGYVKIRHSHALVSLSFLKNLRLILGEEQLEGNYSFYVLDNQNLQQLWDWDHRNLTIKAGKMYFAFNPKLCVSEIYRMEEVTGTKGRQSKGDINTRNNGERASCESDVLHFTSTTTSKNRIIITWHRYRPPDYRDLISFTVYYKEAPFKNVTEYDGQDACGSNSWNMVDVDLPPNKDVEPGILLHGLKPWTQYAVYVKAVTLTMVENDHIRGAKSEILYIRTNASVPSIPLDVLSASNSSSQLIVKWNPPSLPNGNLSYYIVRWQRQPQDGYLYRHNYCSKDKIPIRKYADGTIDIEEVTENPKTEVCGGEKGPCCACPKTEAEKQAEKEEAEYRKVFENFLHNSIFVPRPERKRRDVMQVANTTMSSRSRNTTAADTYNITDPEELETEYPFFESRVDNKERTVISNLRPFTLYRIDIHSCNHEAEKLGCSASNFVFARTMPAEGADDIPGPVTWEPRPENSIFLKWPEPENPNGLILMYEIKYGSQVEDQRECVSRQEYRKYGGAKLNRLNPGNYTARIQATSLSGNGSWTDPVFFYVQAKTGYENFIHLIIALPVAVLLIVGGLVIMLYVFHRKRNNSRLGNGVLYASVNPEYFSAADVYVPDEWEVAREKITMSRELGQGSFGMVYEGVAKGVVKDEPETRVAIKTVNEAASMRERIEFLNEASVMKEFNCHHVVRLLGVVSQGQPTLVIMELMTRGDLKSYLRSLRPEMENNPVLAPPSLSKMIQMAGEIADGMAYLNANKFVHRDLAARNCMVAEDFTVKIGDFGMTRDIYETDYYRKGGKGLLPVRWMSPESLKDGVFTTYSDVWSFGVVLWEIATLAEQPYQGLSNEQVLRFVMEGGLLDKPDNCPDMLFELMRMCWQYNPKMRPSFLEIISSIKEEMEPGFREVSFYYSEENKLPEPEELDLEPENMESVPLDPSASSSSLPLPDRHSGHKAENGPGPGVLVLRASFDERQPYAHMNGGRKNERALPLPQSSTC
# UniProt P30291, sequence (whole entry, looked up): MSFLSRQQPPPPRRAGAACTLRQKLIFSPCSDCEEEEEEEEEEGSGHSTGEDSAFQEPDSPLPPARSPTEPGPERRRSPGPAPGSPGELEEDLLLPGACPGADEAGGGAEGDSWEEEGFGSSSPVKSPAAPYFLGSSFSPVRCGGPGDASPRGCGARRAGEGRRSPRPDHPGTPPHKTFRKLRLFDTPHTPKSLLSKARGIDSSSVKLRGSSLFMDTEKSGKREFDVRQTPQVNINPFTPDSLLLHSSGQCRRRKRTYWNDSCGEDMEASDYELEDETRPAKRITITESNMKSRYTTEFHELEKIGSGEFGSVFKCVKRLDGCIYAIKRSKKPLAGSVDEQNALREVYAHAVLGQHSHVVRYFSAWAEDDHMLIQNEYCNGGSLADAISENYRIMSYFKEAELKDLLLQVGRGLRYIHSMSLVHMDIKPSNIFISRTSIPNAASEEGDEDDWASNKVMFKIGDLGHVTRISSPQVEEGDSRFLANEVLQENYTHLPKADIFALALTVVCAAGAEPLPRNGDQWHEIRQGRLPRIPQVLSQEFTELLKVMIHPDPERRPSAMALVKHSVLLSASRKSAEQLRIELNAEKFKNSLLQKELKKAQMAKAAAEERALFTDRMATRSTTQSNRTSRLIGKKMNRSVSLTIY
# UniProt P11802, sequence (whole entry, looked up): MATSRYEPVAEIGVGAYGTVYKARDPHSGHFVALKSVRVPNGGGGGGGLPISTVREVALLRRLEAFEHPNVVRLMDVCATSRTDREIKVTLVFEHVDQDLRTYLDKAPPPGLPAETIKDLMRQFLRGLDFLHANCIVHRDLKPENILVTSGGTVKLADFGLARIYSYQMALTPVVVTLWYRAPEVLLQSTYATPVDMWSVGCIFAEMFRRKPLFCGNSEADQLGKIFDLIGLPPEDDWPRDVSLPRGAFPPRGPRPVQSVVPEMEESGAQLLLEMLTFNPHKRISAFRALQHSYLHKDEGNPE

# Block 1
# SMILES: CNCc1ccccc1-c1csc([C@@H](C)Nc2nc(C)nc3cc(OC)c(OC)cc23)c1
# Concentration: 1 µM
target,test,remaining binding
"WEE1 (Homo sapiens, UniProt P30291)","cell-free assay, competition with immobilised ligand",100%
"CAMKK2 (Homo sapiens, UniProt Q96RR4)","cell-free assay, competition with immobilised ligand",100%
"Cyclin-dependent kinase 4, with cyclin D3 (CDK4, Homo sapiens, UniProt P11802)","cell-free assay, competition with immobilised ligand",90%
"PIK3CA (Homo sapiens, UniProt P42336, E542K)","cell-free assay, competition with immobilised ligand",80%
"Tyrosine-protein kinase ABL1, phosphorylated (ABL1, Homo sapiens, UniProt P00519, T315I)","cell-free assay, competition with immobilised ligand",83%
"TLK2 (Homo sapiens, UniProt Q86UE8)","cell-free assay, competition with immobilised ligand",90%
"MET (Homo sapiens, UniProt P08581)","cell-free assay, competition with immobilised ligand",95%
"Tyrosine-protein kinase ABL1, phosphorylated (ABL1, Homo sapiens, UniProt P00519, F317I)",binding,78%
"Ribosomal protein S6 kinase alpha-4, C-terminal kinase domain (RPS6KA4, Homo sapiens, UniProt O75676)","cell-free assay, competition with immobilised ligand",79%
"IGF1R (Homo sapiens, UniProt P08069)","cell-free assay, competition with immobilised ligand",100%

# Block 2
# SMILES: CC(C)n1cnc(-c2ccc(F)cc2)c1-c1ncc(C(=O)Nc2ccc(N3CCN(C)CC3)cc2)[nH]1
test,system,setting,patients with adverse event [%]
"Phase 2a trial, measured: haemoptysis","human, idiopathic pulmonary fibrosis","30 mg once daily, grade 5",0
"Phase 2a trial, measured: hypertriglyceridaemia","human, idiopathic pulmonary fibrosis","all compound arms total, grade 4",0
"measured: periorbital oedema, grade 5",idiopathic pulmonary fibrosis patients,"oral, 60 mg once daily",0
"measured: abnormal liver function test, grade 5",idiopathic pulmonary fibrosis patients,"oral, 60 mg once daily",0
"Phase 2a trial, measured: blood pressure increased","human, idiopathic pulmonary fibrosis","30 mg once daily, grade 3",0
"measured: abnormal liver function test, grade 2",idiopathic pulmonary fibrosis patients,"oral, 60 mg once daily",0
"Phase 2a trial, measured: blood lactate dehydrogenase increased","human, idiopathic pulmonary fibrosis","all compound arms total, grade 3",0

# Block 3
# Target: Testis-specific serine/threonine-protein kinase 1 (TSSK1B, Homo sapiens, UniProt Q9BXA7)
# Read-out: enzyme activity
# Mode: inhibitor
# Concentration: 0.5 µM
# Relative to: control
# Construct (Q9BXA7 1-367): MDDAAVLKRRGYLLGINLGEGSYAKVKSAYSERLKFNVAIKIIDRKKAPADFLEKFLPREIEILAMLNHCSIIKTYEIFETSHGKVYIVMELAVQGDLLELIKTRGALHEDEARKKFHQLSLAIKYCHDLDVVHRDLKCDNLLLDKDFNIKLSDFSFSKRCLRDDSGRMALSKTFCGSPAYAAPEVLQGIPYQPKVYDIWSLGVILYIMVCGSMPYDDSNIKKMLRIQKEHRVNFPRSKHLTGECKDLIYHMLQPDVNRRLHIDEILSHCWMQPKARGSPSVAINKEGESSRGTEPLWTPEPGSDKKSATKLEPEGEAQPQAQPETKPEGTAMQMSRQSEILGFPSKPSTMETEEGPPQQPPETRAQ
SMILES,remaining activity
N#CC(=C(N)Sc1ccc(N)cc1)c1ccccc1C(F)(F)F,103%
CC(=O)c1ccc(N2CCOCC2)cc1O,107%
Nc1nccc(-c2c(-c3ccc(F)cc3)ncn2C2CCNCC2)n1,106%
NC(=O)c1ccc(N(C(N)=O)c2c(F)cccc2F)nc1-c1ccc(F)cc1F,83%
CC[n+]1c(/C=C/N(C)c2ccccc2)n(-c2ccccc2)c2ccc(-c3nc4ccccc4s3)cc21,102%
COc1ccc(S(=O)(=O)N(CCO)c2ccccc2CN(C)CC=Cc2ccc(Cl)cc2)cc1,103%

# Block 4
# Species: mouse
# Sample: microsomes or S9
# Concentration: 2 µM
# Time: 0.5 h
SMILES,remaining compound [%]
CC1CCC(N(Cc2nnc(C3CCC3)n2C)CC2CCCO2)CC1 (stereo not shown),0.0264
CCOc1ccc(NC(=O)Nc2ccc(-c3nnc(-c4ccccc4)o3)cc2)cc1,> 100
CC1(c2ccccn2)CCN(C(=O)C(O)c2ccccc2)C1 (stereo not shown),89.7
CC(=O)c1c(NN2CCOCC2)[nH]c2c(Cl)cc([N+](=O)[O-])cc2c1=O,23.4
Cc1nc2ccccc2c(=O)n1-c1ccc(Cl)c(O[C@H]2CCN(C)C2)c1,67.7

# Repeated from above (block 4):
SMILES,remaining compound [%]
CCOc1ccc(NC(=O)Nc2ccc(-c3nnc(-c4ccccc4)o3)cc2)cc1,> 100
CC(=O)c1c(NN2CCOCC2)[nH]c2c(Cl)cc([N+](=O)[O-])cc2c1=O,23.4
Cc1nc2ccccc2c(=O)n1-c1ccc(Cl)c(O[C@H]2CCN(C)C2)c1,67.7
CC1(c2ccccn2)CCN(C(=O)C(O)c2ccccc2)C1 (stereo not shown),89.7
